Assay results of several laboratories.
Each numbered part is a random draw from the data of one study; scales do not carry over between parts. Changes are numbered by the printed parent chain.

Study 1
Target: ABI1, truncated, D143A, DHFR fusion (Arabidopsis thaliana)
Method: DHFR PCA, deep sequencing
Matrix: yeast
Notes: methotrexate growth selection, single substitutions
Added: (+)-ABA 0.032 µM
Reference: wild-type fitted maximum
Reading: higher = stronger binding
Parent: PYL1, truncated, DHFR fusion (Arabidopsis thaliana); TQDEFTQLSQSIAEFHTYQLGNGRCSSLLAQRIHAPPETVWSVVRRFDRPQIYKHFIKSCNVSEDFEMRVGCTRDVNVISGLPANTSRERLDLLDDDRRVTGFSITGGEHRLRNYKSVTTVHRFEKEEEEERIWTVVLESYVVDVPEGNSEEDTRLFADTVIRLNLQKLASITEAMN
Variant | relative binding score
E174W | -4.4%
T73H | 19.5%
T1S | 23.8%
K126Y | 28.5%
N149I | 34.7%
D97E | 46.8%
F15M | 1.61%

Study 2
Target: RNA binding protein fox-1 homolog 2, RRM domain, GST-SBP tag (RBFOX2, Homo sapiens, UniProt O43251-10, residues 100-194)
Method: RNA Bind-n-Seq
Form: RNA
Matrix: in vitro
Concentration: 365 nM
Notes: natural RNA segment, single round, ends assumed
Reference: no-protein control
Reading: higher = stronger binding
Shared flanks, not repeated: GGGAGUUCUACAGUCCGACGAUC … UGGAAUUCUCGGGUGCCAA
Strand | RBNS enrichment (R)
UCAAGACAUUUCCACUGCAGUUUCAAGCUGUAGUGGGCAUAUGCUUCAUUUACUUCCAAAGAGGCAAAAGCAGCUGGAAUUGGCUUACAGCACAUGCUUUGUUUCAUGUU | 0.465
AGGAAAUGGCCACAUGUGUGGAUGGUUUAAUUAGAUUCUGUGGAGUCUCACAGUGGGAUUGUGGUUGUCUGAGGACACUUUGGGGGGUCGCUGUCCAAGAAGUGGCUCCC | 0.809
GAAGGAGCAAAAAAAGCCACCGCUCGUUUCUAUAAUCCAGCUUUGCUUUUCACAGGCGUGGGAUCCAGGAUGGUGUCCUCUGUGAGGACUUGAACUCUGGGGCUUUAAUU | 0.365
UCUAGCAGUUCUUUUUGUGAUGUCUCUUUGUUAAUCUGAGUCUAUCUAUUUUCGGCAAUAAGGUAAGGACGACAGUGUUUUGAGUGUCCUCCUUUUCUAUAAGUGCUUUU | 1.41
CAUGUUUGUGACUGUAACCAUUUGUAUGAAUUAUUUUAAAGAAAUAAAAAUCCCAGAAAGAGCCGGCCGCCUGGCACCAGUUUUAAUGGCUUCAUCAAAUGGGAGCACUG | 0.409
UGCCUCCAGCCCGAGCCUCCUCUCCUCUUCUCUCCCGAGACACAGCCUCACCCGUCAUUUCAUUCUCUAUCCACUGUCUGUCACCUCCAGCAUGGAAAGGUUCAGCUGGA | 1.5

Study 3
Target: CCNB2, cyclin fold, Cln2 fusion (human)
Method: yeast growth competition, sequencing
Matrix: yeast
Notes: weak parent motif
Reference: not given
Reading: higher = stronger binding
Parent: RBL1 docking peptide (human); GSAKRRLFGEDPP
Variant | normalised enrichment score
R6T | -0.202
P12I | 0.249
G1N | -0.302
F8M | 0.13
P12Q | 0.0135
A3Y | 0.284
R5G | -0.0625
S2K | 0.119
D11S | 0.332

Mixed results
Substance | target | test | test system | setting | scale | measurement | value
PhoQ, residues 284 288 289 292 302 303 ASHLAV | PhoP, residues 12 14 15 18 19 NMSFL (Escherichia coli, UniProt P23836) | Sort-seq, item: YFP reporter | E. coli | PhoQ-PhoP variant library, added: 10 µM Mg2+ | reference: high Mg2+ state, higher = stronger signaling | fold induction | 13.3
